Measured values pooled from the literature.
Each numbered part is a random draw from the data of one study; scales do not carry over between parts.

Block 1
Target: Centromere-binding protein 1, full length, His-tagged (CBF1, Saccharomyces cerevisiae, UniProt P17106, residues 1-351)
Chain of UniProt P17106 (whole entry, looked up): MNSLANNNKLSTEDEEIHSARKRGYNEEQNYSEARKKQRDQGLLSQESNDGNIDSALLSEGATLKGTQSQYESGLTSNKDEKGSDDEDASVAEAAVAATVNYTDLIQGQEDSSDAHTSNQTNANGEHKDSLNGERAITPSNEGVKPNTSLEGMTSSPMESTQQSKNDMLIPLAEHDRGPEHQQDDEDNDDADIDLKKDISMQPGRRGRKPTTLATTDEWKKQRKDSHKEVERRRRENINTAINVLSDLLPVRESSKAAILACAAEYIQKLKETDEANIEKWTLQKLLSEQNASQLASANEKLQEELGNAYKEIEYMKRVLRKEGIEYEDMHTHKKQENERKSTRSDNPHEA
Method: competition protein-binding microarray
Molecule type: double-stranded DNA, one strand shown
Sample: in vitro
Tested at: 2 µM
Notes: whole 60-bp probe, lowest competitor level
Added: Pho4 competitor, 0.05 µM
Reading: higher = stronger binding
Shared flanks, not repeated: … GTCTTGATTCGCTTGACGCTGCTG
Strand | fluorescence intensity [a.u.]
CATACCCAACCTTATCACGTGTTTTAAGATATTTGT | 5450
AAAGCGGTAATTTTTCACGTGGAATCAAATATCTAT | 933
CTAACGAAGGTTTGCTGGGTGGGTGACAAGCCAAGT | 75
TATATTTCTTTCCATCACGTGCTTTAAAAATAATTA | 11000
CGGCGCTAAACTCTTCACGTGAGGAGTTCACTAGAG | 1440
TTTCTCACAAGACTGCTCGTGGTGAGGCCGCTTTGG | 79.2
CACAGCTCCTGCTGACATGTGCCACTCCTGGAATGC | 136
CTTTTGTCCAAGTTCCACGTGTCCAAAAATTGGAAA | 1870
AAGCTAAGCTCGAAGGACGTGCTAAGACATACGAAT | 70.4
AAAGTAAAATCCCAACACGTGATGGTGTTCGTCTGA | 4110
TTCCTGTAACACTGGCACGCTTGAAGTGAGCATAAA | 71.4
CAGCCACTGGTGCTAAACGTGCTAAATTCAGAAAGA | 85.9
GGCGGGTTTCTTCGGCACGCACAGGAGGCACCCCAG | 65.4
CTTTCCCGATCTTGAGGTGTGGGTGTAGCACATTTG | 71.1
CGTCCTAGTGATTGTAAAGTGGGTGCCATGAGGAAG | 86
CAAGATAGGGAGAGCCACGTGATAGACTGGGGAGAG | 2410
TATCCTAAATGCCATCACGATGATAAATCCTCCGCC | 118
AAATCAATGGGCTCAGCTCATCTTGAAAAGCTCACT | 58.5
CCCGCGACTCTAAAGCACGGGATTGAAGTCAGCTTC | 279

Block 2
Target: Ras GTPase-activating protein-binding protein 1, full length (G3BP1, Homo sapiens, UniProt Q13283)
Chain of UniProt Q13283 (whole entry, looked up): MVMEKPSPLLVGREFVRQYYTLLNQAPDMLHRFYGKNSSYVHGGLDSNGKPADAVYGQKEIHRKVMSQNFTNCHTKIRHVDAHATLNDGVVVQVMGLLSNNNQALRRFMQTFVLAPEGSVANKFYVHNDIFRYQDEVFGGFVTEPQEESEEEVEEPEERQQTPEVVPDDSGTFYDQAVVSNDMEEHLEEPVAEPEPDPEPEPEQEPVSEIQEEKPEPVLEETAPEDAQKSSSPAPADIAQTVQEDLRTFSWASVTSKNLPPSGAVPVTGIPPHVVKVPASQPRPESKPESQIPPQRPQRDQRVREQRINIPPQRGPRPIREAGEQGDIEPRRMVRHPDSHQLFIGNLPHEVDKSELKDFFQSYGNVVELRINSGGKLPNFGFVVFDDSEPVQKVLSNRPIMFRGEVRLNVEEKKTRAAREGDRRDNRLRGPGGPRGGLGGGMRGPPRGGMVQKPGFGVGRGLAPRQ
Method: RNA Bind-n-Seq
Molecule type: RNA
Sample: in vitro
Tested at: 200 nM
Notes: whole 134-nt RNA, ends assumed
Added: 150 mM KCl
Relative to: input library
Reading: higher = stronger binding
Shared flanks, not repeated: GGGAGUUCUACAGUCCGACGAUC … UGGAAUUCUCGGGUGUCAAGG
Strand | log2 enrichment
UUACCGACACCGUAGAACAGAGCAAGAGGAGGAUGAAGAGCUAUUAACAGAAAGCUCCAAAGCAACCAAUGUUUGCACUCGAUUUGAAGA | -0.33
GCAGGAAGUAAAAACAAAUGGAAAUGCUUCGGAUAGUGGCAGGGGUGGGGGUUGCAAAGGAAAGGGUGGGAUGGGAGUGGGUAAAGAGUU | 0.81
CAAGUCCUGUGCUACACAUCGUAUGUACCGAAUCGGUUUUUGGAAAAAAAGGAGGAAAGUAUUAUGUUACGCCGUUCGGAUCUGCACUUC | -0.847
CAAGUCCUGUGCUACACAUCGUAUGUACCGAAUCGGGUUUUUGGGUGGGAAAGGGAAAGUAUUAUGUUACGCCGUUCGGAUCUGCACUUC | 0.382
CAAGUCCUGUGCUACACAUCGUAUGUACCGAAUCGGGGCCCGGGCCCGGCCCGGGGAAAGUAUUAUGUUACGCCGUUCGGAUCUGCACUU | -0.975
AAGUCCUGUGCUACACAUCGUAUGUACCGAAUCAAAUUUAAACCCAAAUUUUUAAAAAAGUAUUAUGUUACGCCGUUCGGAUCUGCACUU | -0.468
UAGGGUUCAGGAUAAGUUUGAGGUGCUGAAUUACACAAGCAUUCCUAUCUUUCUCCCGGAAGUCACCAUUGGAGCUCAUCAGACUGACCG | -0.791
AAGUCCUGUGCUACACAUCGUAUGUACCGAAUCAAAUUUAAAUUUAAAUUUUUAAAAAAGUAUUAUGUUACGCCGUUCGGAUCUGCACUU | -1.53
CCUGUGCUACACAUCGUAUGUACCGAAUCGGUUUUUUUGGGGUUUUUUUGGUUUUUUUGGGAAAGUAUUAUGUUACGCCGUUCGGAUCUG | -0.987

Block 3
Target: RING finger protein unkempt homolog, zinc fingers 1-6, GST-SBP tag (UNK, Homo sapiens, UniProt Q9C0B0, residues 30-357)
Method: RNA Bind-n-Seq
Molecule type: RNA
Sample: in vitro
Tested at: not given
Notes: RNA with constant flanks, human and mouse sites, ends assumed
Relative to: input RNA pool
Reading: higher = stronger binding
Shared flanks, not repeated: GGGAGUUCUACAGUCCGACGAUC … CAACAGAGGAUUGAGCAUCA
Residues (chain): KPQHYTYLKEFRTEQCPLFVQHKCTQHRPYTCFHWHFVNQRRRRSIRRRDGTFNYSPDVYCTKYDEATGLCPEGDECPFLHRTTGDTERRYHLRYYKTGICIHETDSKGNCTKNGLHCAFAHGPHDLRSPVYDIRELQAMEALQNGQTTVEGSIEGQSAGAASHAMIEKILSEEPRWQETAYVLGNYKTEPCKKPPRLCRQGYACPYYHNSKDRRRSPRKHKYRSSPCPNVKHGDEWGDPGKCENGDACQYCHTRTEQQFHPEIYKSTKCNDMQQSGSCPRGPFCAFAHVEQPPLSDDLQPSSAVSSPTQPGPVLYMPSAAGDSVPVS
Strand | bound/input enrichment
UUAAUUAAAGAAACAAAGCUUUCUGCUGAACCAGCUCCGGAUUUCUCUGAUUAUUCAGAAAUGGCAAAAGUUGAACAGCCAGUGCCUGAUCAUUCUGAGCUAGUUGAAGAUUCCUCACCU | 0.129 ratio
AUGAAAUCAUCCUGUGAGUUAUUUCCUCCAUAAUAACCCUGCAUUUCCCAUUAAUCUACAUAUCUUCCCACAGCAGCUUUGCUCAGUGAUACCCACAUGGGAAAAAUCCCAGGGGAUGUU | 0.377 ratio
GGAGGAAUGCCUUUUGCAAUAAUGUAUCCCUUCCCUGAUGGAGGGUGGGUGGGUGGACCCAGGCUCCCUUUGCACACGGAGCAGUACCUUCUAAGCCAUAUCGACUGUUGAGCAGAGGGU | 0.231 ratio
UACCUUAUAUUACAUCUCAUCUCCACAGUAUAUACAAGAAGAGAUGUCCUUCCACUAGGAAAAUUUACAGUUAACUUGAGUGGUUGCCCACGGAAUAGUACCUUCACAGAACACUUGUAU | 2.58 ratio
AUGAUGAUUUUCAUUGAAGCAUCCUCAGAAAACCCUUGUAGUCUUUACUCUUCUGUCUGUUAUAGCCCCCAGGCAGAAAAAGUUUACAAGUUAUGCAGCCCACCCGCUGAUUUGCAUAAG | 0.193 ratio
AUGUCUAGUGGCCUAGAAUUUGUAUCCCACAAUCCCCCAAGUGAAGCAGCUGCUCCUCCAGUGGCAAGGACCAGUCCUGCAGGGGGAACGUGGUCCUCAGUGGUCAGUGGGGUUCCAAGG | 0.11 ratio
GCGCCCCCCGGGCGCCCCGAUGUUUUUCCUCCUCCCCUCAGCUCUGAGCAUAAUGGGCAGGUAGCUGAGGACGCAGUGUCCCGGCCAAAGGAUGACGGCGUACCAGAGGUCCGAGCUGCU | 0.122 ratio
CAUGUUUUUGAAGAAGACUUCAUUUUGAAUAACCUUGAGAAGAAAAGCCUUGGCAAAGACAGCAUUUUAUCUAAUGCAGGCAGCUCACCUAAUGGAUUUUCUGAGAAGUUCUACCUAAUU | 0.0976 ratio

Block 4
Target: Histone acetyltransferase KAT6A, winged helix 2, GST fusion (KAT6A, Homo sapiens, UniProt Q92794, residues 85-181)
Method: protein binding microarray
Molecule type: double-stranded DNA, one strand shown
Sample: in vitro
Tested at: not given
Notes: 8-mer, flanks averaged, mean of 2 arrays, mostly near background
Relative to: not given
Reading: higher = stronger binding
Residues (chain): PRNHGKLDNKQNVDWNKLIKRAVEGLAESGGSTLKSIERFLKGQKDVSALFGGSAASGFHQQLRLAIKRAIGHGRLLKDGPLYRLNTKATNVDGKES
Strand | E-score
GCCAAGGC | -0.00996
ACAAGCAA | 0.0559
ATGTGTAG | -0.295
ATGCTCCA | 0.026
ATCAAACG | -0.116
CTCCCCGA | 0.0954
CCCCAACG | 0.144
GACGCGCA | 0.0585
ATCTTAGG | -0.0485
GTACCTTA | -0.149
TAGTGAGA | -0.024
GAAGTTTA | 0.0743
GCGTTGCC | 0.0669
CTTGCCCC | 0.115
TAAAAACA | -0.109
ACAGTTCC | 0.042
AAAGGCTT | -0.17
CTACTCAC | -0.0921
TCGGTAAA | -0.11
AGTTCCGC | 0.119
CTACCACC | -0.208
CACGTCTA | -0.136
CTGGGACC | 0.0181
CTACTGGA | -0.197
CCAAAGGA | -0.0885

Repeated from above (block 2):
Strand | log2 enrichment
CAAGUCCUGUGCUACACAUCGUAUGUACCGAAUCGGGGCCCGGGCCCGGCCCGGGGAAAGUAUUAUGUUACGCCGUUCGGAUCUGCACUU | -0.975
UUACCGACACCGUAGAACAGAGCAAGAGGAGGAUGAAGAGCUAUUAACAGAAAGCUCCAAAGCAACCAAUGUUUGCACUCGAUUUGAAGA | -0.33
UAGGGUUCAGGAUAAGUUUGAGGUGCUGAAUUACACAAGCAUUCCUAUCUUUCUCCCGGAAGUCACCAUUGGAGCUCAUCAGACUGACCG | -0.791
CCUGUGCUACACAUCGUAUGUACCGAAUCGGUUUUUUUGGGGUUUUUUUGGUUUUUUUGGGAAAGUAUUAUGUUACGCCGUUCGGAUCUG | -0.987
AAGUCCUGUGCUACACAUCGUAUGUACCGAAUCAAAUUUAAAUUUAAAUUUUUAAAAAAGUAUUAUGUUACGCCGUUCGGAUCUGCACUU | -1.53
GCAGGAAGUAAAAACAAAUGGAAAUGCUUCGGAUAGUGGCAGGGGUGGGGGUUGCAAAGGAAAGGGUGGGAUGGGAGUGGGUAAAGAGUU | 0.81
CAAGUCCUGUGCUACACAUCGUAUGUACCGAAUCGGUUUUUGGAAAAAAAGGAGGAAAGUAUUAUGUUACGCCGUUCGGAUCUGCACUUC | -0.847
AAGUCCUGUGCUACACAUCGUAUGUACCGAAUCAAAUUUAAACCCAAAUUUUUAAAAAAGUAUUAUGUUACGCCGUUCGGAUCUGCACUU | -0.468
CAAGUCCUGUGCUACACAUCGUAUGUACCGAAUCGGGUUUUUGGGUGGGAAAGGGAAAGUAUUAUGUUACGCCGUUCGGAUCUGCACUUC | 0.382
